Results collected from several papers.
Every numbered part comes from another study and shows a few of its results, in no order. Substitutions count along the parent as printed.

Block 1
Target: Histone acetyltransferase KAT6A, winged helix 1, GST fusion (KAT6A, Homo sapiens, UniProt Q92794, residues 1-85)
Technique: protein binding microarray
Molecule type: double-stranded DNA, one strand shown
Sample: in vitro
Concentration: not given
Setting: 8-mer, flanks averaged, mean of 2 arrays, mostly near background
Relative to: not given
Reading: higher = stronger binding
Measurement: E-score
Target sequence (chain): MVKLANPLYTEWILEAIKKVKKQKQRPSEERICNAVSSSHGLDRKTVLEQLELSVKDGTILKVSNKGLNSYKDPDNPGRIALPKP
AGTAGCCG: 0.263
ACTCTGAC: -0.064
AAATCAGT: -0.0713
ACTCTATG: -0.0551
ATTCGGGG: 0.113
CCGCACCC: 0.267
ACTTGCGA: -0.127
ATCTGAAA: -0.146
GACGGGCA: 0.286
ACTGGGGC: -0.164

Block 2
Target: CCNB3, cyclin fold, Cln2 fusion (human)
Technique: yeast growth competition, sequencing
Sample: yeast
Setting: weak parent motif
Relative to: not given
Reading: higher = stronger binding
Measurement: normalised enrichment score
Starting sequence: SLBP docking peptide (human); ARYKRKLLINDFG; partner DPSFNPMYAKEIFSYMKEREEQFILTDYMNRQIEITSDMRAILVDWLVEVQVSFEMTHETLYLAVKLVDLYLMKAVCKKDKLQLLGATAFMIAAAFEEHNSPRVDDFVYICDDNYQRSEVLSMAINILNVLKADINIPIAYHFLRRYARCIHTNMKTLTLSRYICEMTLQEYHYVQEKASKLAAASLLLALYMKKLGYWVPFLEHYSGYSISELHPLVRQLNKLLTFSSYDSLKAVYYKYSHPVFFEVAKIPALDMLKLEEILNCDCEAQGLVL
ARYKLKLLINDFG [R5L]: 0.562
ARYKRKLLINIFG [D11I]: 0.0035
ARYMRKLLINDFG [K4M]: 0.213
ARYKRKLQINDFG [L8Q]: 0.119
ARYKGKLLINDFG [R5G]: 0.22
ACYKRKLLINDFG [R2C]: -0.0473
ARYKRKLLINDFQ [G13Q]: 0.527

Block 3
Target: RNA binding protein fox-1 homolog 2, RRM domain, GST-SBP tag (RBFOX2, Homo sapiens, UniProt O43251-10, residues 100-194)
Technique: RNA Bind-n-Seq
Molecule type: RNA
Sample: in vitro
Concentration: 365 nM
Setting: natural RNA segment, single round, ends assumed
Relative to: no-protein control
Reading: higher = stronger binding
Measurement: RBNS enrichment (R)
All sequences stand within: GGGAGUUCUACAGUCCGACGAUC … UGGAAUUCUCGGGUGCCAA
Residues (chain): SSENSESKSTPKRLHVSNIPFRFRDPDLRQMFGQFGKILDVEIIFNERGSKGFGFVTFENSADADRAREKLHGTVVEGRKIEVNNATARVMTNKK
UUCAGAAAAUUGCUUUUGCCUUUUUCAUGAAUGUUAAGCAGCAGCAUUGUGAGAUCGAUCUGUCCUGGCAGUUAACACAAUGUGCAACAGUGUGUUAGCAUGGAACAGAA: 0.332
UGAGCCAGGGCCUCUGGCCGGGCAUGCCCCUGCCUGCCCCGCCGUCUUGACCUGCCAGCUUCACUUCCAUCUGUGUUGCUAUUAGGUAUCUCUAACACCAGCACACUUCU: 0.161
UACACAUACGUAUGUUAGGAAAAUAGGCACACUUUCAAAGAGAAUGUUCUCUUACACAUACGUAUGUUAGGAAAAUAGACACAUUUUCAAAGAGAAUGUUCUCUUACAUA: 0.313
UGAAAUAUGUUUGAGUAAAAAAGAGUUGCCUGCCACAAUUUAGUGUUGGGGUUCCAGUGGAGCUGAGAAAGUGAACAAUCCAGCUACUUAAAGCAACAACAAAACCUGUU: 0.351
UUCUAGCAGAGGCAAGAAUACAUAUUCAUAUACGCUUACUUAUGAAUUACCAUUUUAACAUUUAGAUAACAUGAAAUAUGGCCCUCUUGAAUUCUUGCUUUUAAGUUCCU: 0.599
GUGGGGUGGGAGAACCUCCUGGGCCGCCAGCCAGAGCCGGUCUUUAGGCUGUGUUGUUCGCCCAGGUUUCUGCAUCUUGCACUUUGACAUUCCCAAGAGGGAAGGGACUA: 0.669
GCCGGCCUCAGGACCCUCCCUGGAGGGGCUGCCACCUCUGCCCUCAUCUCCAGGGCCUUGACCUCACUGGACUGUGACUGUCCUCAGGACACCUGCCCCUCCUCACCUAA: 0.637

Mixed results
PhoQ, residues 284 288 289 292 302 303 NLSRDF
fold induction (PhoP, residues 12 14 15 18 19 IFFTR (Escherichia coli, UniProt P23836); Sort-seq, refers to: YFP reporter; E. coli; PhoQ-PhoP variant library, together with: 10 µM Mg2+; relative to: high Mg2+ state, higher = stronger signaling): 1.2

A few entries again (block 1):
ATCTGAAA: -0.146
GACGGGCA: 0.286
